Published values from different studies.
± marks the error that the study gave.
Organism: Plasmodium falciparum

| Structure (SMILES) | assay | system | setting | how to read | quantity | value |
| --- | --- | --- | --- | --- | --- | --- |
| CCc1nc2nc(C)cc(Nc3ccc(F)c(Cl)c3)n2n1 | parasite growth, SYBR Green | – | 72 h | relative to: 3D7-E182D over 3D7 | EC50 ratio | 16 |
| O=C(O)C1=CC(=C(c2ccc(O)c(C(=O)O)c2)c2ccc(O)c(C(=O)O)c2)C=CC1=O | – | GB4 | – | – | IC50 | 7.94 µM |
| C[C@@H]1CC[C@H]2[C@@H](C)C(=O)O[C@@H]3O[C@@]4(C)CC[C@@H]1[C@]32OO4 | – | – | – | relative to: IC50 Dd2 over IC50 3D7 | resistance index | 1.02 |
| CC[C@H](C)[C@H](NC(=O)[C@H]([C@@H](C)CC)N(C)C(C)=O)C(=O)N[C@H](C(=O)N[C@@H](CC(C)C)C(=O)[C@@]1(C)CO1)[C@@H](C)O | SYBR Green | Dd2 | 72 h | – | EC50 | 14 ± 2.3 nM |
| CN1[C@@H]2CC[C@H]1C[C@@H](OC(=O)c1cc(Cl)cc(Cl)c1)C2 | – | HB3 | – | – | IC50 | 12.6 µM |
| Clc1cccc(C(c2ccc3[nH]cnc3c2)n2ccnc2)c1 (stereo not drawn) | – | FVO, purified merozoites, erythrocytes | 50 µM | – | merozoite invasion | 54% |
| OCCN1CCN(CC/C=C2/c3ccccc3Sc3ccc(C(F)(F)F)cc32)CC1 | – | Dd2 | – | – | IC50 | 10 µM |
| Cn1cc(-c2ccc3ccn(CC(=O)Nc4ccccc4Cl)c3c2)cn1 | – | Dd2 PfATP4 I398F P990R D1247Y | 72 h | relative to: mutant over parental | EC50 fold shift | 5 fold |
| O=C(CN1CCN(C(=O)c2ccco2)CC1)Nc1ccccc1Br | parasite growth, SYBR Green | 3D7 wild type | 72 h | – | EC50 | 253 ± 73 nM |
| NC(=Nc1ccccc1)NC(=O)c1nc(Cl)c(N)nc1N | – | 3D7 | – | – | IC50 | 3.16 µM |
| CCn1cc(-c2nc(C)no2)c(=O)c2cc(F)c(N3CCC(C)CC3)cc21 | parasite growth, [3H]hypoxanthine incorporation | Dd2 | 72 h | – | EC50 | 11 nM |
| Oc1ccc2c3c1O[C@H]1c4[nH]c5c(c4C[C@@]4(O)[C@@H](C2)N(CC2CC2)CC[C@]314)C[C@@]1(O)[C@H]2Cc3ccc(O)c4c3[C@@]1(CCN2CC1CC1)[C@H]5O4 | – | FVO, purified merozoites, erythrocytes | 25 µM | – | merozoite invasion | 100% |
| Cc1ccc(N(c2ccc(NC(=O)CN(C)c3ccccc3N3CCCC3=O)cc2)C(C)C)cc1 | SYBR Green | Dd2 CSC1 L800P mutant | 72 h | relative to: mutant over parental Dd2 | EC50 fold shift | ~650 fold |
| Cc1cccc(C(=O)N2CCN(Cc3cccc(NC(=O)c4ccco4)c3)CC2)c1.O=C(O)C(F)(F)F | parasite growth, SYBR Green | – | 72 h | relative to: 3D7-E182D over 3D7 | EC50 ratio | 4 |
| CCc1nnc(-c2ccc3ccn(CC(=O)Nc4cc(OC)c(OC)c(OC)c4)c3c2)o1 | parasite growth | Dd2 PfATP4 F156L | – | relative to: parental Dd2 | EC50 shift | ~2 fold |
| COC(=O)c1cccc(C#CCCOCCCCCCNC[C@H](O)c2cc(Cl)c(N)c(Cl)c2)c1 | parasite growth, SYBR Green | 3D7 DHODH E182D | 72 h | – | EC50 | 1410 ± 760 nM |
| COc1ccccc1N1CCN(CCCCNC(=O)c2ccc3ccccc3c2)CC1 | – | HB3 | – | – | IC50 | 3.98 µM |
| CC(=O)c1c(Cc2ccccc2Cl)c[nH]c1C | parasite growth | – | – | – | EC50 | 85.8 ± 54 nM |
| CC(C)C[C@H](NC(=O)[C@H](Cc1c[nH]c2ccccc12)NC(=O)CN1CCOCC1)C(=O)N[C@H](/C=C/S(C)(=O)=O)Cc1c[nH]c2ccccc12 | – | Dd2 β5 S28L CRISPR-edited | concentration not given | – | EC50 | 11 ± 2.7 nM |
| Cc1cccc(C(=O)N2CCN(Cc3cccc(NC(=O)c4cccs4)c3)CC2)c1 | parasite growth, SYBR Green | 3D7 wild type | 72 h | – | EC50 | 262 ± 100 nM |
| c1cc([C@H]2CC[C@]3(CC2)OO[C@]2(O3)C3CC4CC(C3)CC2C4)ccc1OCCN1CCOCC1 | – | human patients, malaria | oral, 400 mg | – | lag phase duration | 4 h |
| CNCCCN1c2ccccc2CCc2ccccc21 | – | 3D7 | – | – | IC50 | 10 µM |
| Cc1cc(Nc2ccc(C(C)(C)C)cc2)c2[nH]ncc2n1 | parasite growth, SYBR Green | 3D7 DHODH E182D | 72 h | – | EC50 | 2010 ± 180 nM |
| CC(C)(C)c1cc(C=C(C#N)C#N)cc(C(C)(C)C)c1O | – | 3D7 | – | – | IC50 | 0.52 µM |
| OC(c1cc(C(F)(F)F)nc2c(C(F)(F)F)cccc12)C1CCCCN1 (stereo not drawn) | parasite growth | Dd2 | – | – | EC50 | 8.03 ± 3 nM |
| O=C1N=c2cc(Cl)c(Cl)cc2=NC1=O | – | GB4 | – | – | IC50 | 3.98 µM |
| CCN(CC)CCCC(C)Nc1ccnc2cc(Cl)ccc12 (stereo not drawn) | growth, [3H]-hypoxanthine uptake | Dd2 | 96 h | relative to: Dd2 IC50 over 3D7 IC50 | resistance index | 6.5 |

Excerpt of the above:
| Structure (SMILES) | assay | system | setting | how to read | quantity | value |
| --- | --- | --- | --- | --- | --- | --- |
| Clc1cccc(C(c2ccc3[nH]cnc3c2)n2ccnc2)c1 (stereo not drawn) | – | FVO, purified merozoites, erythrocytes | 50 µM | – | merozoite invasion | 54% |
| OCCN1CCN(CC/C=C2/c3ccccc3Sc3ccc(C(F)(F)F)cc32)CC1 | – | Dd2 | – | – | IC50 | 10 µM |
| Cn1cc(-c2ccc3ccn(CC(=O)Nc4ccccc4Cl)c3c2)cn1 | – | Dd2 PfATP4 I398F P990R D1247Y | 72 h | relative to: mutant over parental | EC50 fold shift | 5 fold |
